# Measured values collected from several papers.
# Compare with care: the assays were run in different laboratories. ± marks the error that the study gave.
SMILES,test,system,setting,how to read,quantity,result
CC(C)[C@@H]1NC(=O)[C@H](Cc2ccccc2)NC(=O)[C@]2(CC[C@H](c3ccccc3)CC2)NC(=O)[C@@H](N)CSSC[C@@H](C(=O)N2CCC[C@H]2C(=O)N[C@@H](CCCNC(=N)N)C(=O)NCC(N)=O)NC(=O)[C@H](CC(N)=O)NC1=O,,conscious male rat,"subcutaneous, dose not given",baseline: AVP 465 IU/mg,antidiuretic activity,15 IU/mg
CCCC[C@H](NC(=O)[C@@H](NC(=O)[C@H](CC(=O)O)NC(=O)[C@H](CCC(N)=O)NC(=O)[C@H](CC(C)C)NC(=O)[C@H](CC(C)C)NC(=O)[C@H](CCCN)NC(=O)[C@H](CCCNC(=N)N)NC(=O)[C@H](C)NC(=O)[C@H](CO)NC(=O)[C@H](CC(C)C)NC(=O)[C@H](CCC(N)=O)NC(=O)[C@H](CC)NC(=O)[C@H](CC(C)C)NC(=O)[C@@H](NC(=O)[C@H](CCCN)NC(=O)[C@H](CCCNC(=N)N)NC(=O)[C@H](Cc1ccc(O)cc1)NC(=O)[C@H](CO)NC(=O)[C@H](CCC(N)=O)NC(=O)[C@@H](NC(=O)[C@H](Cc1ccccc1)NC(=O)[C@@H](NC(=O)[C@H](C)NC(=O)[C@H](CC(=O)O)NC(=O)[C@@H](C)NC(=O)[C@H](Cc1ccc(O)cc1)N(C)C(C)=O)[C@@H](C)CC)[C@@H](C)O)C(C)C)[C@@H](C)CC)C(=O)N[C@@H](CC(=O)O)C(=O)NCCCCNC(=N)N,GH release,"rat, male, serum","subcutaneous, 3 µg/kg, 30 min",baseline: reference GHRH agonist JI-38,relative potency,0.3
CC(=O)Nc1cccc(CNC(=O)c2cnc3ccccc3c2C(F)(F)F)c1,larval locomotion,Drosophila melanogaster Tip60 RNAi larvae,"oral in food, dose not given",,effective concentration,≥ 1 µM
CC[C@H](C)[C@@H]1NC(=O)[C@H](Cc2ccc(O)cc2)NC(=O)[C@@H](N)CSSC[C@@H](C(=O)N2CCC[C@H]2C(=O)N[C@@H](CCCCNC(=O)COCCOCCNC(=O)COCCOCCNC(=O)CC[C@H](NC(=O)CC[C@H](NC(=O)CCCCCCCCCCCCCCCCC(=O)O)C(=O)O)C(=O)O)C(=O)NCC(N)=O)NC(=O)[C@H](CC(N)=O)NC(=O)[C@H](CCC(N)=O)NC1=O,,"C57BL/6 mice, diet-induced obese","subcutaneous, 2 µmol/kg daily",baseline: vehicle,food intake suppression,21%
C[C@@H](O)[C@@H]1NC(=O)[C@H](CCCCN)NC(=O)[C@@H](Cc2ccc(NC(N)=O)cc2)NC(=O)[C@H](Cc2ccc(NC(=O)[C@@H]3CC(=O)NC(=O)N3)cc2)NC(=O)[C@H](NC(=O)[C@H](Cc2ccc(Cl)cc2)NC(=O)CN2CCN(CC(=O)O)CCN(CC(=O)O)CCN(CC(=O)O)CC2)CSSC[C@@H](C(=O)N[C@H](Cc2ccc(O)cc2)C(N)=O)NC1=O [gallium-68 labelled],PET/CT,"human neuroendocrine tumour patients, all lesions",60 min,,SUVmax,21 ± 21
CCCCCN(CCCCC)C(C)C(=O)c1cc(C)c2ccc3cc(C(C)C)ccc3c2c1.Cl (stereo not shown),flow cytometry,"humanized PD-1 mouse, MC38-hPD-L1 tumour, tumour","dose not given, day 30",baseline: atezolizumab,regulatory T cells,decreased
CCC(=O)N1CCN(c2ccc(N(C)C(=O)C(C)(C)c3cc(C(F)(F)F)cc(C(F)(F)F)c3)c(-c3ccccc3C)c2)CC1,"mechanical allodynia, antagonist, von Frey test",hNK1R-407 mice,"intrathecal, 5 µL, 100 nM, added: capsaicin",,duration of complete prevention,4 h
O=C1c2c(O)cc3oc4cc(O)c(O)cc4c3c2OC1Cc1ccccc1 (stereo not shown),"ABTS scavenging, absorbance",,,,EC50,1030 µM
CCCN(c1ccc(C(=O)NCCC(=O)O)cc1)S(=O)(=O)c1cc(C)c(-c2ccc(C(C)(C)C)cc2)c(C)c1,,HFD-induced obese mouse,"oral, 50 mg/kg, all time points, added: 15 µg/kg glucagon ip after 1 h",,glucagon-induced blood glucose,decreased
CCCC[C@H](NC(=O)[C@@H](NC(=O)[C@H](CC(=O)O)NC(=O)[C@H](CCC(N)=O)NC(=O)[C@H](CC(C)C)NC(=O)[C@H](CC(C)C)NC(=O)[C@H](CCCN)NC(=O)[C@H](CCCNC(=N)N)NC(=O)[C@H](C)NC(=O)[C@H](CO)NC(=O)[C@H](CC(C)C)NC(=O)[C@H](CCC(N)=O)NC(=O)[C@H](CC)NC(=O)[C@H](CC(C)C)NC(=O)[C@@H](NC(=O)[C@H](CCCN)NC(=O)[C@H](CCCNC(=N)N)NC(=O)[C@H](Cc1ccc(O)cc1)NC(=O)[C@H](CO)NC(=O)[C@H](CC(N)=O)NC(=O)[C@@H](NC(=O)[C@H](Cc1c(F)c(F)c(F)c(F)c1F)NC(=O)[C@@H](NC(=O)[C@H](C)NC(=O)[C@H](CC(=O)O)NC(=O)[C@@H](C)NC(=O)CCc1ccc(O)cc1)[C@@H](C)CC)[C@@H](C)O)C(C)C)[C@@H](C)CC)C(=O)N[C@@H](CO)C(=O)N[C@@H](CCCNC(=N)N)C(=O)NCCCC(N)=O,GH release,"male rat, serum","subcutaneous, dose not given, 15 min",baseline: GHRH(1-29)NH2,relative potency,76.5

# For quick reference, copied from above:
SMILES,test,system,setting,how to read,quantity,result
C[C@@H](O)[C@@H]1NC(=O)[C@H](CCCCN)NC(=O)[C@@H](Cc2ccc(NC(N)=O)cc2)NC(=O)[C@H](Cc2ccc(NC(=O)[C@@H]3CC(=O)NC(=O)N3)cc2)NC(=O)[C@H](NC(=O)[C@H](Cc2ccc(Cl)cc2)NC(=O)CN2CCN(CC(=O)O)CCN(CC(=O)O)CCN(CC(=O)O)CC2)CSSC[C@@H](C(=O)N[C@H](Cc2ccc(O)cc2)C(N)=O)NC1=O [gallium-68 labelled],PET/CT,"human neuroendocrine tumour patients, all lesions",60 min,,SUVmax,21 ± 21
CCCCCN(CCCCC)C(C)C(=O)c1cc(C)c2ccc3cc(C(C)C)ccc3c2c1.Cl (stereo not shown),flow cytometry,"humanized PD-1 mouse, MC38-hPD-L1 tumour, tumour","dose not given, day 30",baseline: atezolizumab,regulatory T cells,decreased
